# Published values pooled from the literature.
# Each numbered part is a random draw from the data of one study; scales do not carry over between parts. “And” joins repeats or separate records; there may be more than shown.
# Chain of UniProt Q9HC98 (whole entry, looked up): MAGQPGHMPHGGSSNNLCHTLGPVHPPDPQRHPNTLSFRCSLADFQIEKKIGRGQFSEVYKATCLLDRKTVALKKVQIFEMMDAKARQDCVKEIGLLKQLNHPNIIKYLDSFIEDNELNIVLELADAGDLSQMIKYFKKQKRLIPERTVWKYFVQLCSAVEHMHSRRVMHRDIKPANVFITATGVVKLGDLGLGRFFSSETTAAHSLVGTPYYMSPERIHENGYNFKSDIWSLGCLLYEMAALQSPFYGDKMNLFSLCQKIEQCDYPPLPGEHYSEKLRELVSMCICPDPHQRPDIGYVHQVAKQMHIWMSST
# Chain of UniProt O94804 (whole entry, looked up): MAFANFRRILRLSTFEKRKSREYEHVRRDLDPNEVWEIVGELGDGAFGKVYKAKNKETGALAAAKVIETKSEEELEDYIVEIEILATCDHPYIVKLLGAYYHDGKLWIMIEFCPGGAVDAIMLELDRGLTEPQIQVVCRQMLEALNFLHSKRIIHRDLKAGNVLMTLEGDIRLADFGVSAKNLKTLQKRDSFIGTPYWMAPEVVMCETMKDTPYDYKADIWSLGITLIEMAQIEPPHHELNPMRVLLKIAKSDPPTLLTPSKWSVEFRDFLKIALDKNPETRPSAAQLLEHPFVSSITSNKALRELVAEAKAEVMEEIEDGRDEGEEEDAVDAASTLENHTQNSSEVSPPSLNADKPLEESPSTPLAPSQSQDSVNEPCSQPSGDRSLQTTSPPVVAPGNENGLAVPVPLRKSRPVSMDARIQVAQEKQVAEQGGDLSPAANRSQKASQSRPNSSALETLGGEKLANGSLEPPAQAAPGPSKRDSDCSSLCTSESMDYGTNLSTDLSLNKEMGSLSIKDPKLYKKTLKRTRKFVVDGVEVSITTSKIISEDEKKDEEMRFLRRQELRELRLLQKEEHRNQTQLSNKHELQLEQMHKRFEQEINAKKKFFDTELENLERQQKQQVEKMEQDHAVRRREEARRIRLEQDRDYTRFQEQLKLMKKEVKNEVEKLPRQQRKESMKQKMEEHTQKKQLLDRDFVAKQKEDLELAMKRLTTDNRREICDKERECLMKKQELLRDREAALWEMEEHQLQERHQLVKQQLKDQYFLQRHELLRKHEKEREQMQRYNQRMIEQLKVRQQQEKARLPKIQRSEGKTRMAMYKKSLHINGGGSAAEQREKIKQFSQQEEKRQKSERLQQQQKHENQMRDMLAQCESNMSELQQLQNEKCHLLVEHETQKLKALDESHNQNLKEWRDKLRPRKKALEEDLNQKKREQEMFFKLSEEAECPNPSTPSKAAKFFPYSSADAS
# Chain of UniProt Q9Y5S2 (whole entry, looked up): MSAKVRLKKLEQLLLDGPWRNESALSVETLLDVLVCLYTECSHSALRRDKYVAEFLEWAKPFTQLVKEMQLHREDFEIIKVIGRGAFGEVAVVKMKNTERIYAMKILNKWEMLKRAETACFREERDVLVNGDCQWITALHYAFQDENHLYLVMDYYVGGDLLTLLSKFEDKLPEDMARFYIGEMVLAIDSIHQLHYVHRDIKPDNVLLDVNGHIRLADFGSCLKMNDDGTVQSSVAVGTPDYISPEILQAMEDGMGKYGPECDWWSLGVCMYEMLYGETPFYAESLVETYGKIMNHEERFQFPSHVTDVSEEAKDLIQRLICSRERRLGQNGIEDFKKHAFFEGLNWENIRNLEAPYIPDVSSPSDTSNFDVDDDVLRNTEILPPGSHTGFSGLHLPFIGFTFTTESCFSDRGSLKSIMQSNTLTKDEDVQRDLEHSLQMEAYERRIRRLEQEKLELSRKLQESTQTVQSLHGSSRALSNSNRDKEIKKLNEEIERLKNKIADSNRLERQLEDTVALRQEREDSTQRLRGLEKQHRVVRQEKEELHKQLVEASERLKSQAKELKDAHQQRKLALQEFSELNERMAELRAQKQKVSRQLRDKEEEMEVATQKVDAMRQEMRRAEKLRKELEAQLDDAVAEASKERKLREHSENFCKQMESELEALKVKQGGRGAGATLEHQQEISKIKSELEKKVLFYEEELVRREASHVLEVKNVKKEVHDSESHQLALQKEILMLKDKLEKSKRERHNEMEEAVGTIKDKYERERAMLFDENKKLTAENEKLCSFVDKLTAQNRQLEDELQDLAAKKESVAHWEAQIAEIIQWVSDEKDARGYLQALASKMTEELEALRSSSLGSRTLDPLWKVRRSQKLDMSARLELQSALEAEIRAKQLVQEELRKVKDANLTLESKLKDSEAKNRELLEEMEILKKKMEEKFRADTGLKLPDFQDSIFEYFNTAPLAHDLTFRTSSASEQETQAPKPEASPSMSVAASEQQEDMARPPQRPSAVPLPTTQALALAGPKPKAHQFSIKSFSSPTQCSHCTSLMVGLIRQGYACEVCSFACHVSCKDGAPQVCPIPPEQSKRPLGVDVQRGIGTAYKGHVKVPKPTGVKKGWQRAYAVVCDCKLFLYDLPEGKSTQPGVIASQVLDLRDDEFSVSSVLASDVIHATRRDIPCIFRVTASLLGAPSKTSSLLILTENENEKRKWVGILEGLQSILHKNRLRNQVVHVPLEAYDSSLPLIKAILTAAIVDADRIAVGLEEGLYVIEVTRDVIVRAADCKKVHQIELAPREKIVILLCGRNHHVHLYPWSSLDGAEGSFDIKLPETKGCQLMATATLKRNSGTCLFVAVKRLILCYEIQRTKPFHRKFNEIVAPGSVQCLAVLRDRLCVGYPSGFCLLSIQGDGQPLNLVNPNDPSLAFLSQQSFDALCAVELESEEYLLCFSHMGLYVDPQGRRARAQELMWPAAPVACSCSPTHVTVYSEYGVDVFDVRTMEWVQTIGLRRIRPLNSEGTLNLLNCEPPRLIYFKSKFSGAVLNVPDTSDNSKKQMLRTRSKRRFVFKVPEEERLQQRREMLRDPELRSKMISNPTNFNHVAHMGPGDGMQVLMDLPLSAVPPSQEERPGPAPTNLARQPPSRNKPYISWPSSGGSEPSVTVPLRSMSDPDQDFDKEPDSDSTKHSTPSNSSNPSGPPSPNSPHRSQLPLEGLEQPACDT
# Chain of UniProt Q86YV6 (whole entry, looked up): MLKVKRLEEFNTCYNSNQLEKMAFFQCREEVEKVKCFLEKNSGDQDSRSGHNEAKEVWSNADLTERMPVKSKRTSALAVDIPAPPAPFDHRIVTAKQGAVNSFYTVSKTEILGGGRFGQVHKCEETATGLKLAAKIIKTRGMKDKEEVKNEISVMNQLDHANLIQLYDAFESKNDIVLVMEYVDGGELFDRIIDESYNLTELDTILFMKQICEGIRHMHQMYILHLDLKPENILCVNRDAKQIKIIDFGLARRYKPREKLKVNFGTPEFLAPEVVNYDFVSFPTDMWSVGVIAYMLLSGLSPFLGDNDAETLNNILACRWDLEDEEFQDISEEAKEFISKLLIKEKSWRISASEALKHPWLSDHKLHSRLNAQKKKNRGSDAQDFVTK
# Chain of UniProt P45985 (whole entry, looked up): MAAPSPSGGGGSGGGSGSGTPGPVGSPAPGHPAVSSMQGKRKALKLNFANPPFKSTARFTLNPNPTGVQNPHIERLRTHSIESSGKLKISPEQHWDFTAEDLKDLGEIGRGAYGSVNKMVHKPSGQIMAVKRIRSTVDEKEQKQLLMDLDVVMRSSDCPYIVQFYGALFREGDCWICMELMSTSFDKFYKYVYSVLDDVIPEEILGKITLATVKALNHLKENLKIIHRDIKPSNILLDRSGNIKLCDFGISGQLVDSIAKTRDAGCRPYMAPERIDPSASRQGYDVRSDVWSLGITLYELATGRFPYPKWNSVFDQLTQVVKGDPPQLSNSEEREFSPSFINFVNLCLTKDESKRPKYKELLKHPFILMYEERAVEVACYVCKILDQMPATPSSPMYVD
# Chain of UniProt Q9NRP7 (whole entry, looked up): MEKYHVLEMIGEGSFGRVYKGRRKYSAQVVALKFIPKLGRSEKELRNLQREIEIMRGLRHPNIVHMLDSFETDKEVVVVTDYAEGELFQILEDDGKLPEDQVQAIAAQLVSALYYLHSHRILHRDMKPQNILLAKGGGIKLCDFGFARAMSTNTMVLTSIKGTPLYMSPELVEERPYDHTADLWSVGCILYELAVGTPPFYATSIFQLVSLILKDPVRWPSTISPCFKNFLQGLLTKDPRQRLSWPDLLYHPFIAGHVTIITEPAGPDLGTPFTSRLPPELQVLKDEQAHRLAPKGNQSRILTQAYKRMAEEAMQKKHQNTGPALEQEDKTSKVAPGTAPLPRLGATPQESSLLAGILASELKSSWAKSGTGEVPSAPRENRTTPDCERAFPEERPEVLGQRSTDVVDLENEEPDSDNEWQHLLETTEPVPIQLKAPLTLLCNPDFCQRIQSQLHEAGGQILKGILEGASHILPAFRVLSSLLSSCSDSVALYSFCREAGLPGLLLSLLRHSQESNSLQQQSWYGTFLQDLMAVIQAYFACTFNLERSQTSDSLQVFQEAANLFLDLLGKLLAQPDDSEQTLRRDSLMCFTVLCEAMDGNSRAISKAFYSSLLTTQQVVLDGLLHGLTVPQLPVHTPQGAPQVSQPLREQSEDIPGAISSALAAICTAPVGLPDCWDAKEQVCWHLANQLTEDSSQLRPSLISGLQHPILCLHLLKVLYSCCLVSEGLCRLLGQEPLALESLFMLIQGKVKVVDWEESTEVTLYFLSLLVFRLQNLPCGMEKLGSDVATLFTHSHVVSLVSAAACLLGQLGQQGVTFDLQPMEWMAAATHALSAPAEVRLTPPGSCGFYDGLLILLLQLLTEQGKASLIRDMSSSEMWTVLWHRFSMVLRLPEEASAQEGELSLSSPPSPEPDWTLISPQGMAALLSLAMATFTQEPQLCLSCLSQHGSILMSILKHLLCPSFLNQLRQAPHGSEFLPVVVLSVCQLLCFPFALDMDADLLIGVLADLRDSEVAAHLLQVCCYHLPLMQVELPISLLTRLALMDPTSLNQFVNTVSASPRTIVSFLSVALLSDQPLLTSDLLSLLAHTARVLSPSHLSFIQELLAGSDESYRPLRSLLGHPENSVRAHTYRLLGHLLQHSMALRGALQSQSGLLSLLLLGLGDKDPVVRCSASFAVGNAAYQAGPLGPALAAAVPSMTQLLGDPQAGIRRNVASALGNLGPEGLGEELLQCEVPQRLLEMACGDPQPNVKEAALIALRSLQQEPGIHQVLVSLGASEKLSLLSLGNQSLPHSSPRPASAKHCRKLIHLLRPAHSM

# Series 1
# Host: mouse
# Sample: microsomes or S9
# Concentration: 2 µM
# Time: 0.5 h
SMILES,remaining compound
Cc1cnc(C(=O)Nc2cc(Cl)c(Cl)c(Cl)c2)cn1,4.51%
CCN(CC)S(=O)(=O)c1cc(C(=O)N2CCN(Cc3cnn(C)c3)CC2)c(Cl)cc1Cl,1.71%
CC(=O)Nc1cccc(C(=O)Nc2ccccc2)c1,58.6%
CN(C)C1(CNC(=O)C(O)c2ccccc2Cl)CCCCC1 (centres unmarked),4.54%
CC(C)CCNC(=O)c1c(OCC2CC2)cc(=O)n2c1CCOCC2,34.2%
O=C(CCCSc1ccc(NC(=O)C2CC2)nn1)Nc1cnc2ccccc2c1,30.1%
COc1ccc(/C=C/c2cc(OC(C)=O)cc(OC3OC(COC(C)=O)C(OC(C)=O)C(OC(C)=O)C3OC(C)=O)c2)cc1OC(C)=O (centres unmarked),0.783%
CC(C)=CCc1c2ccoc2c(O)c2oc(=O)ccc12,14.5%

# Series 2
# SMILES: CNC(=O)Nc1ccc2c(c1)[C@@]1(CC2)OC(=O)N(CC(=O)N(Cc2ccc(F)cc2)[C@@H](C)C(F)(F)F)C1=O
# Effect on: cell-free assay
# Technique: competition with immobilised ligand
# Concentration: 1 µM
target,remaining binding [%]
"Dual specificity mitogen-activated protein kinase kinase 4 (MAP2K4, Homo sapiens, UniProt P45985)",95
"Serine/threonine-protein kinase 10 (STK10, Homo sapiens, UniProt O94804)",92
"Myosin light chain kinase family member 4 (MYLK4, Homo sapiens, UniProt Q86YV6)",100
"Mitogen-activated protein kinase kinase kinase 19 (MAP3K19, Homo sapiens, UniProt Q56UN5)",73
"Serine/threonine-protein kinase MRCK beta (CDC42BPB, Homo sapiens, UniProt Q9Y5S2)",80
"Serine/threonine-protein kinase WNK3 (WNK3, Homo sapiens, UniProt Q9BYP7)",63
"Cyclin-dependent kinase 17 (CDK17, Homo sapiens, UniProt Q00537)",88
"Serine/threonine-protein kinase 36 (STK36, Homo sapiens, UniProt Q9NRP7)",100

# Series 3
# Compound: CC(C)S(=O)(=O)c1ccc2nccc(Nc3ccc4scnc4c3)c2c1
# Cell line: L929
# Effect on: caspase activity
# Technique: Ac-DEVD-pNA absorbance
# Direction: higher = more activity
setting,caspase-3 activity
"5 µM, 0 h",0.015 a.u. and -0.0035 a.u. and 0.011 a.u. and 0.0075 a.u.
"10 µM, 1 h",0.015 a.u. and 0.035 a.u. and 0.075 a.u. and 0.016 a.u. and 0.032 a.u.
"5 µM, 4 h",0.066 a.u. and 0.168 a.u. and 0.167 a.u. and 0.171 a.u.

# Mixed results
Compound,target,assay,setting,how to read,quantity,value
COc1ccc2c(c[n+](C)c3c4cc5c(cc4ccc23)OCO5)c1OC,"Serine/threonine-protein kinase Nek6 (NEK6, Homo sapiens, UniProt Q9HC98)","enzyme activity, inhibitor",0.5 µM,relative to: control,remaining activity,104%

# Repeated from above (series 3):
setting,caspase-3 activity
"10 µM, 1 h",0.015 a.u. and 0.035 a.u. and 0.075 a.u. and 0.016 a.u. and 0.032 a.u.
"5 µM, 0 h",0.015 a.u. and -0.0035 a.u. and 0.011 a.u. and 0.0075 a.u.
"5 µM, 4 h",0.066 a.u. and 0.168 a.u. and 0.167 a.u. and 0.171 a.u.
